Results of several laboratories.
Each line is one published result; not all experiments were run side by side. “And” joins repeats or separate records; there may be more than shown. Numbers after ± are the reported error.
ADRA1A: Alpha-1A adrenergic receptor (ADRA1A, Homo sapiens, UniProt P35348)
CASP10: Caspase-10 (CASP10, Homo sapiens, UniProt Q92851)
CASP8: Caspase-8 (CASP8, Homo sapiens, UniProt Q14790)
HSD3B1: 3 beta-hydroxysteroid dehydrogenase/Delta 5-->4-isomerase type 1 (HSD3B1, Homo sapiens, UniProt P14060)

COc1cc(/C=C/c2ccc(O)cc2)cc(OC)c1  cooperativity factor σ (O-methyltransferase (Sorghum bicolor, UniProt A0A1B6PFV1); biolayer interferometry; added: SAM+): 0.48
CN(C)CCCSC(=S)N1CCN(C(=O)/C=C/c2coc3ccccc3c2=O)CC1  relative protein level (Nucleoprotein (N, Tomato spotted wilt virus, UniProt P25999); immunoblot, measured: N protein; concentration not given, 30 min, 25 °C, added: RNA; baseline: level at 0 min): 0.959 and 1.33
CC(C)[C@@H]1NC(=O)[C@H](Cc2ccccc2)NC(=O)CSC[C@@H](C(N)=O)NC(=O)[C@H](CCC(=O)O)NC(=O)[C@H](CO)NC(=O)[C@H](Cc2c[nH]c3cccc(Cl)c23)NC(=O)[C@H](C2CCCCC2)NC(=O)[C@H](C(C)C)NC(=O)[C@H](Cc2ccc(O)cc2)NC(=O)[C@H](CC(=O)O)NC(=O)[C@H](Cc2c[nH]c3ccccc23)NC(=O)[C@H](Cc2ccc(N)nc2)NC(=O)[C@H](Cc2c[nH]c3ccc(Cl)cc23)NC(=O)[C@H](CCC(=O)O)NC1=O  remaining activity (Interleukin-1 receptor-like 2 (IL1RL2, Homo sapiens, UniProt Q9HB29); reporter gene (SEAP), inhibitor, HEK-Blue IL-36R reporter; HEK-Blue IL-36R cells; 0.0017 µM, 6 h, added: IL-36β 0.01 ng/mL): 87.5%
CC1(C)C[C@@H](Nc2cccc(-c3sc(C(=O)O)c(OCC(=O)O)c3Cl)c2)CCN1S(=O)(=O)Cc1cccc(NC(=O)CN2CCC(c3ccc4c(c3)oc(=O)n4C3CCC(=O)NC3=O)CC2)c1 (stereo partly drawn)  BLI binding response (PTPN2 (Homo sapiens, UniProt P17706); degrader, bio-layer interferometry; 31.3 nM, biotinylated protein immobilised; higher = more binding): 0.111 a.u. and 0.0967 a.u.
C=C1C(=O)C2(C(=O)N3CCN(C(C)=O)CC3)CC(=O)CC1C2 (racemic)  kinact/KI (PTPN11 (Homo sapiens, UniProt Q06124); enzyme activity, covalent inhibitor; added: pNPP substrate): 15.4 M⁻¹ s⁻¹
C[n+]1cn(C2OC(COP(=O)(O)OP(=O)([O-])C(F)(F)P(=O)(O)OP(=O)(O)OCC3OC(n4cnc5c(=O)[nH]c(N)nc54)C(O)C3O)C(O)C2O)c2nc(N)nc(O)c21 (stereo not drawn)  hydrolysis (DCPS (Homo sapiens, UniProt Q96C86); substrate, HPLC; concentration not given, 120 min): 87.5 ± 0.4%
CNC[C@H](O)c1cccc(OCCOCCOCC#Cc2cccc(Cn3c(-c4ccccc4)c(-c4ccccc4)c4c(=N)n([C@H]5CC[C@H](O)CC5)cnc43)c2)c1  time to return to baseline ERK phosphorylation (ADRA1A; agonist, immunoblot, measured: phospho-ERK1/2; HEK293 stably transfected with ADRA1A; 10 µM): ≤ 30 min
Cc1cc(C(=O)NCCNC(=O)c2cccc(COc3ccccc3C(N)=O)c2)n[nH]1  inhibition (PARP2 (Homo sapiens, UniProt Q9UGN5); enzyme activity, inhibitor; 5 nM): 38%
CCn1cc(-c2cccc(C(F)(F)F)c2)c2sc(C(=N)NC3CCS(=O)(=O)CC3)cc2c1=O  ΔTm (TRIM24 (Homo sapiens, UniProt O15164)): -0.6 °C
CC[C@H](NC(=O)[C@H](CC(C)C)NC(=O)[C@H](CC(=O)O)NC(C)=O)C(=O)N[C@@H](CC(=O)O)C(=O)COC(=O)c1c(C)cccc1C  kinact/KI (CASP10; enzyme activity, inhibitor): 137000 M⁻¹ s⁻¹
Cc1cc2nc3c(nc2cc1C)-c1ccc2[n]1[Au-]14[n]5c(ccc5-3)C=[N+]1CCC[N+]4=C2.F[P-](F)(F)(F)(F)F  Hill coefficient (DNA topoisomerase 1 (TOP1, Homo sapiens, UniProt P11387)): 2.5
CC(=O)N[C@@H](CC(=O)O)C(=O)N[C@@H](CCC(=O)O)C(=O)N[C@H](C(=O)N[C@@H](CC(=O)O)C(=O)COC(=O)c1c(C)cccc1C)C(C)C  kinact/KI (CASP8; enzyme activity, inhibitor): 889000 M⁻¹ s⁻¹
CC[C@H](C)[C@H](NC(=O)[C@@H](NC(=O)[C@H](CCCCN)NC(=O)[C@@H](NC(=O)CNC(=O)[C@@H](N)CCCNC(=N)N)[C@@H](C)O)C(C)C)C(=O)N[C@@H](CC(C)C)C(=O)N[C@@H](Cc1c[nH]cn1)C(=O)N[C@@H](CC(C)C)C(N)=O  ThT fluorescence (MAPT (Homo sapiens, UniProt P10636); fibril formation, ThT fluorescence; 1-fold of tau, at plateau, added: wild-type tau 10 µM, heparin; baseline: untreated): 6 ± 3%
C[C@@H](Nc1nc(N[C@H](C)C(F)(F)F)nc(-c2cccc(Cl)n2)n1)C(F)(F)F  maximal inhibition (IDH1 (Homo sapiens, UniProt O75874, R132C); measured: 2-hydroxyglutarate; HT-1080): 91%
N#CN1CC[C@H](C(=O)Nc2nc3c(s2)CN(C(=O)Cn2cc(COCCOCCOCCOCCNC(=O)CCCC[C@@H]4SC[C@@H]5NC(=O)N[C@@H]54)nn2)CC3)C1  iBAQ abundance (PCMT1 (Homo sapiens, UniProt P22061); probe binding, affinity probe, neutravidin pull-down LC-MS/MS; HEK293T, cell lysate; 5 µM, 1 h, mean of three replicates, unit not given; higher = more pulled down): 2.9e+08
C[Si](C)(C)C[C@H](CN)CC(=O)O  inhibition (SLC29A1 (Homo sapiens, UniProt Q99808); binding, radioligand binding; 250 µM, added: [3H]nitrobenzylthioinosine): 0%
CCCC[C@H](NC(C)=O)C(=O)N[C@@H](CCC(=O)O)C(=O)N[C@H](C(=O)N[C@@H](CC(=O)O)C(=O)COC(=O)c1c(C)cccc1C)[C@@H](C)O  kinact/KI (CASP10; enzyme activity, inhibitor): 164000 M⁻¹ s⁻¹
O=C(COc1ccc(Cl)cc1Cl)Nc1cc(C2CC2)nn1C1CCOCC1  Emax (Kir3.1/Kir3.4 (Homo sapiens, UniProt P48544+P48549); thallium flux, activator; HEK293; baseline: standard compound): 72%
CC(=O)N[C@@H](CC(=O)O)C(=O)N[C@@H](CCCC(=O)O)C(=O)N[C@@H](CC(C)C)C(=O)N[C@@H](CC(=O)O)C(=O)COC(=O)c1c(C)cccc1C  kinact/KI (CASP8; enzyme activity, inhibitor): 924000 M⁻¹ s⁻¹
O=c1cc(NCCc2ccccc2)c2ccccc2o1  agonist activity (ADRA1A; intracellular Ca2+ mobilization, agonist; COS-7; 500 µM; baseline: 3 µM ionomycin): 18.1 ± 2.35%
CCCCCCCCCCCCC/C=C/C=O  isoTOP-ABPP competition ratio (F-box only protein 30 (FBXO30, Homo sapiens, UniProt Q8TB52); competitive isoTOP-ABPP; Ramos soluble proteome; 100 µM, 60 min, added: iodoacetamide probe; baseline: DMSO over compound-treated, higher = stronger cysteine blockade): 1
C#CCOC(=O)[C@]1(C)C=C(C(=O)OC(C)(C)C)C(=O)CC1  normalized kinase activity (MAPK8 (Homo sapiens, UniProt P45983); enzyme activity, D-SENSOR; 0.06097 µM, single replicate): 1.08 and 1.03 and 1.04
CC(=O)N[C@@H](CC(C)C)C(=O)N[C@@H](CCC(=O)O)C(=O)N[C@@H](Cc1c[nH]cn1)C(=O)N[C@@H](CC(=O)O)C(=O)COC(=O)c1c(C)cccc1C  kinact/KI (CASP10; enzyme activity, inhibitor): 370000 M⁻¹ s⁻¹
O=c1c(-c2ccccc2)coc2cc(O)ccc12  DHEA metabolism (HSD3B1; [3H]-DHEA conversion; LNCaP; 0.1 µM, normalized to protein, unit not given; baseline: vehicle): 1.15
CCCCCC=CC=C1C(=O)C=CC1CC=CCCCC(=O)O (stereo not drawn)  isoTOP-ABPP competition ratio (FAS-associated death domain protein (FADD, Homo sapiens, UniProt Q13158); competitive isoTOP-ABPP; Ramos soluble proteome; 100 µM, added: iodoacetamide probe; baseline: DMSO over compound-treated, higher = stronger cysteine blockade): 1.7
O=C1c2sc(-c3ccc(N4CCC(CO)CC4)nc3F)nc2CCN1c1cccnc1  specific binding (TAR DNA-binding protein 43, aggregated (TARDBP, Homo sapiens, UniProt Q13148); radioligand binding; human, FTLD-TDP type C sarkosyl-insoluble extract; 13.55 nM): 0.225 nM and 0.286 nM and 0.194 nM
CC(C=CC=C(C)C=CC1=C(C)CCCC1(C)C)=CC=O  Pearson correlation coefficient (Rhodopsin (RHO, Homo sapiens, UniProt P08100, T17M); ER retention, immunostaining co-localization, measured: opsin with calnexin; COS-7 transfected T17M; 30.00 µM): 0.44
COc1ccccc1-c1coc2cc(O)ccc2c1=O  DHEA metabolism (HSD3B1; [3H]-DHEA conversion; LNCaP; 0.1 µM, normalized to protein, unit not given; baseline: vehicle): 0.72
CC(=O)N[C@@H](Cc1ccc(O)cc1)C(=O)N[C@@H](CCCCN)C(=O)N[C@@H](C)C(=O)N[C@@H](CC(=O)O)C(=O)COC(=O)c1c(C)cccc1C  kinact/KI (CASP10; enzyme activity, inhibitor): 123000 M⁻¹ s⁻¹
CC[C@H](C)[C@H](NC(=O)[C@@H](NC(=O)[C@H](CCCCN)NC(=O)[C@@H](N)[C@@H](C)O)C(C)C)C(=O)N[C@@H](CC(C)C)C(=O)N[C@@H](Cc1c[nH]cn1)C(N)=O  ThT fluorescence (Microtubule-associated protein tau, PHF6* peptide (MAPT, Homo sapiens, UniProt P10636); fibril formation, ThT fluorescence; 1-fold of peptide, pH 7.4, added: Ac-PHF6* 25 µM, heparin; baseline: untreated): 155 ± 2%
CC(=O)N[C@@H](CC(C)C)C(=O)N[C@@H](CCC(N)=O)C(=O)N[C@@H](CO)C(=O)N[C@@H](CC(=O)O)C(=O)COC(=O)c1c(C)cccc1C  kinact/KI (CASP10; enzyme activity, inhibitor): 315000 M⁻¹ s⁻¹
O=C(N1CCCC1)n1cc(-c2ccc(-c3ccccc3)cc2)nn1  activity ratio (Platelet-activating factor acetylhydrolase 2, cytoplasmic (Mus musculus, UniProt Q8VDG7); enzyme activity, inhibitor, competitive ABPP-SILAC; mouse T-cells; concentration not given, 4 h, treated in situ; baseline: DMSO): 0
CC[C@H](C)[C@@H]1NC(=O)[C@H](Cc2ccccc2)NC(=O)[C@H](CCC(=O)O)NC(=O)[C@H](CCCNC(=N)N)NC(=O)CNC(=O)[C@@H](NC(=O)[C@H](CC(C)C)NC(=O)[C@H](CCCNC(=N)N)NC(=O)[C@@H](NC(=O)CNC(=O)[C@H](Cc2ccc(O)cc2)NC(=O)[C@@H]2CCCN2C(=O)[C@H](C)NC(=O)[C@H](C)NC(=O)[C@@H](N)CCCNC(=N)N)C(C)C)CSSC[C@@H]2NC(=O)[C@@H](NC(=O)[C@H](CO)NC(=O)[C@H](CO)NC(=O)[C@H](CO)NC(=O)[C@H](CC(C)C)NC(=O)CNC(=O)[C@H](C)NC(=O)[C@H](CC(C)C)NC(=O)[C@@H](NC(=O)[C@@H](N)CC(=O)O)C(C)C)CSSC[C@H](NC(=O)CNC(=O)[C@H](Cc3c[nH]c4ccccc34)NC(=O)[C@H](CCCCN)NC2=O)C(=O)N[C@@H](CO)C(=O)N[C@@H](CCCCN)C(=O)N[C@@H](CO)C(=O)N[C@@H](CCC(=O)O)C(=O)N[C@@H]([C@@H](C)CC)C(=O)N[C@@H](CO)C(=O)N[C@@H](CO)C(=O)N[C@@H](CC(C)C)C(=O)N[C@H](C(=O)O)CSSC[C@@H](C(=O)NCC(=O)NCC(=O)N[C@@H](CO)C(=O)N[C@@H](CCCNC(=N)N)C(=O)N[C@@H](Cc2c[nH]c3ccccc23)C(=O)O)NC(=O)[C@H]([C@@H](C)O)NC(=O)[C@H](Cc2ccccc2)NC(=O)[C@H]([C@@H](C)CC)NC(=O)[C@H](C(C)C)NC(=O)[C@H](C)NC(=O)[C@H](CCCNC(=N)N)NC1=O  change in Emax (RXFP4 (Homo sapiens, UniProt Q8TDU9, F291A); F291A mutant; baseline: wild type): -47.1% and -50.2% and -42.2%
O=C(Cc1ccc(OCc2ccccc2)cc1)NC1(C(=O)O)CCN(C(=O)c2ccc(-c3cccc(Cl)c3)cc2)CC1  activity vs control (PIP4K2A (Homo sapiens, UniProt P48426); enzyme activity, inhibitor; 10 µM): 111%
CC(=O)N[C@@H](CC(C)C)C(=O)N[C@@H](CCC(=O)O)C(=O)N[C@H](C(=O)N[C@@H](CC(=O)O)C(=O)COC(=O)c1c(C)cccc1C)[C@@H](C)O  kinact/KI (CASP10; enzyme activity, inhibitor): 307000 M⁻¹ s⁻¹
COc1ccc(C2(C(=O)N3CCC(Nc4nc5ccccc5c(=O)[nH]4)CC3)CC2)cc1  Hill slope (MRGPRD (Homo sapiens, UniProt Q8TDS7, Q182A); miniGq recruitment, agonist, BRET; HEK293T; Q182A mutant): 0.76

Some of these lines once more:
COc1ccccc1-c1coc2cc(O)ccc2c1=O  DHEA metabolism (HSD3B1; [3H]-DHEA conversion; LNCaP; 0.1 µM, normalized to protein, unit not given; baseline: vehicle): 0.72
COc1cc(/C=C/c2ccc(O)cc2)cc(OC)c1  cooperativity factor σ (O-methyltransferase (Sorghum bicolor, UniProt A0A1B6PFV1); biolayer interferometry; added: SAM+): 0.48
CN(C)CCCSC(=S)N1CCN(C(=O)/C=C/c2coc3ccccc3c2=O)CC1  relative protein level (Nucleoprotein (N, Tomato spotted wilt virus, UniProt P25999); immunoblot, measured: N protein; concentration not given, 30 min, 25 °C, added: RNA; baseline: level at 0 min): 0.959 and 1.33
